Published values collected from several papers.
Every numbered part comes from another study and shows a few of its results, in no order. Substitutions count along the parent as printed.
UniProt P28335, sequence (whole entry, looked up): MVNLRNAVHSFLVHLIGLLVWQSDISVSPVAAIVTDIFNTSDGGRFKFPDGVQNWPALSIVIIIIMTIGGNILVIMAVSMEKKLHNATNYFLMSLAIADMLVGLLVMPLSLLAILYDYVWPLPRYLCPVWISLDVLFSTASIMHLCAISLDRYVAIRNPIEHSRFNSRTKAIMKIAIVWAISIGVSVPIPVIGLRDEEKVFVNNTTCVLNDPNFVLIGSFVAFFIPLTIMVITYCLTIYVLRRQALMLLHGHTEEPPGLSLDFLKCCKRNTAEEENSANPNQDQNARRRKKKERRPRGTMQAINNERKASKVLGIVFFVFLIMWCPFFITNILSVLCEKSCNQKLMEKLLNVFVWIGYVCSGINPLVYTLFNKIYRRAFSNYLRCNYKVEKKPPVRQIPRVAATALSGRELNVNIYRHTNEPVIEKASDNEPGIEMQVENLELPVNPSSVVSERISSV
UniProt P41143, sequence (whole entry, looked up): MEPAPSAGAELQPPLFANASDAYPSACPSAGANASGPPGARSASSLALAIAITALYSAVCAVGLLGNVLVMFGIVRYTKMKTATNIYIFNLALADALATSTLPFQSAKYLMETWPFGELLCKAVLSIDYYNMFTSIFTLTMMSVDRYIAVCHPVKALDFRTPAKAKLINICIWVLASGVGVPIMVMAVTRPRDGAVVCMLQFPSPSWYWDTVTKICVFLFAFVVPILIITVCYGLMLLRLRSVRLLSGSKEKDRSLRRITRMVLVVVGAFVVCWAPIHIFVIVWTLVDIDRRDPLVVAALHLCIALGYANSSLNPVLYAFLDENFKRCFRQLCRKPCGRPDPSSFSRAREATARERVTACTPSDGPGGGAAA
UniProt P28223, sequence (whole entry, looked up): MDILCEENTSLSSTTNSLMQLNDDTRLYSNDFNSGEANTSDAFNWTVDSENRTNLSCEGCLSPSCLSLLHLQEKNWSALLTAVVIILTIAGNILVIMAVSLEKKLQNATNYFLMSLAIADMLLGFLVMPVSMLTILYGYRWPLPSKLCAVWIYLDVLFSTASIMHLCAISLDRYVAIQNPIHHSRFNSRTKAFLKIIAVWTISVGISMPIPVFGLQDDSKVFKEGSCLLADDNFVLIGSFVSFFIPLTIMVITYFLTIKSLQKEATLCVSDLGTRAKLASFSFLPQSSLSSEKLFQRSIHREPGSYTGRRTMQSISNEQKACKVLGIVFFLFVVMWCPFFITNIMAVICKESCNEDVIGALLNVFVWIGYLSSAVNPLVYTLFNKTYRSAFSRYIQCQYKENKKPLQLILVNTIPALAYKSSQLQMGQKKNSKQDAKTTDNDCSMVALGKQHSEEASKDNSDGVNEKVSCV

Series 1 — method: RNA Bind-n-Seq; form: RNA; medium: in vitro; tested at: 365 nM; relative to: no-protein control; direction: higher = stronger binding
Target: RNA binding protein fox-1 homolog 2, RRM domain, GST-SBP tag (RBFOX2, Homo sapiens, UniProt O43251-10, residues 100-194)
Notes: natural RNA segment, single round, ends assumed
Target sequence (chain): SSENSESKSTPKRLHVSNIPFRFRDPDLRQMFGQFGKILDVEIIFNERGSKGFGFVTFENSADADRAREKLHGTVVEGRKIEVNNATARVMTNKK
`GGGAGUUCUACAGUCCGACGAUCAAAGUACUACUGAAAAGGAACUAGGAAGUUUGGCCAAUUAAAAAAAAAAAGUAAAAUAAGUUAUAGUGGUCAGGGAAUCUCUUGACGAAAGCUAACUCUUAUUUUUCAGGUGGAAUUCUCGGGUGCCAA` — result for “RBNS enrichment (R)”: 0.354.
`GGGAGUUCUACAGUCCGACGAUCUCUUGCACUUUAAAAACGCUGCGUCCUAUUCCAUUUGAAUGUAAAUUCUUAAAAGUUGAGACCAAUUGUAACCAGUUUAACUCAUUUUAGAUGACCUUUUUUUCUUAUAAUGGAAUUCUCGGGUGCCAA`: “RBNS enrichment (R)” 0.354.
Under “RBNS enrichment (R)”, `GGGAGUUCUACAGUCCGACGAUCAAAAGUUUGCUUCUUUUUAUUGAUGGUUCCAAAGAAACAAACCAAAUCUACCAGCUCUUGGAUGAAGAUAGAACAGUGCUUUUCCAGAGUGGGAAGGAAGGGGUUGAGACUGGAAUUCUCGGGUGCCAA` is recorded as 0.919.
For `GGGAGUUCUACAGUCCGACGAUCCUGGCUCCCAUGACCAUACUGAGGGACCAACUGGGCCCAAGACAGAUGCCCCAGAGCUGUUUAUGGCCUCAGCUGCCUCACUUCCUACAAGAGCAGCCUGUGGCAUCUUUUGGAAUUCUCGGGUGCCAA`, “RBNS enrichment (R)” read 0.686.
Under “RBNS enrichment (R)”, `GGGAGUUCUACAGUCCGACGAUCAUAGAAGGCUGUUAAAGUGACUCAGGCAGGAAUUAAUUAUUCUGUACCUAAGGGGUUACUUGUUUAAUGGGAUGGCAUUGACUUUUUGAAAAUCAAGUGGACUGAGUCAUUGGAAUUCUCGGGUGCCAA` is recorded as 0.389.
For `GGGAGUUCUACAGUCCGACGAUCUAGCCAAGUAGGUUCACUGAGGUUCCAGACUCUUCCACUGGCCUGGGGCCAUGGACAUCUUGUGAGCCCUGCCCUCUGGCUGUAGUUGUCUGAGUGUGAGGGGUUUCAUUUGGAAUUCUCGGGUGCCAA`, “RBNS enrichment (R)” read 0.306.
For `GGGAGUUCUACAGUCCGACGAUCAAAGGGUCCCUACGUUUUACAUUGAUUAAUGAAUUAUCACCCAGACAUGUGCAGAUGAAAUGUCAAUAUAAGAAAAAUCAAGGUAUUUGGGAAACAUGGGCAUAAUCAGGUGGAAUUCUCGGGUGCCAA`, “RBNS enrichment (R)” read 0.822.
`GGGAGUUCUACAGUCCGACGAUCGCUGUGCUGGGGAGGCAGUGUAGAGAGGAGCUGUGGGGCAGCCAGCCUUGGCAGGUGCAGUUUGCAGUUCACUGCAGCUCCCUCCCCCUUUUGUUUCCUCAAUUUAAGCAUGGAAUUCUCGGGUGCCAA` — result for “RBNS enrichment (R)”: 1.54.

Series 2 — target: HLF, bZIP domain (human); method: DHFR protein complementation; medium: yeast; relative to: wild-type JUN-FOS pair; direction: higher = stronger binding
Notes: single substitutions, most at no-binding floor
Starting sequence: JUN, bZIP domain (human); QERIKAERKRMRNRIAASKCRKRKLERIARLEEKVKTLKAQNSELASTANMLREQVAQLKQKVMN; partner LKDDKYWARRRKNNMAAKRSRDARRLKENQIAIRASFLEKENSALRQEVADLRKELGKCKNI
With `A29S` the binding fitness was -1.47 natural log.
The binding fitness of `Q55A` is reported as -1.43 natural log.
The binding fitness of `A40R` is reported as -1.36 natural log.
`L45T` gave a binding fitness of -1.56 natural log.
The binding fitness of `K39P` is reported as -1.54 natural log.
The binding fitness of `V56Q` is reported as -1.61 natural log.
`K36S` has a binding fitness of -1.32 natural log.
For `M51N`, the binding fitness was -1.44 natural log.

Series 3 — observed: binding; method: radioligand binding; tested at: 10 µM
Structure (SMILES): CNCc1ccccc1-c1csc([C@H](C)Nc2nc(C)nc3cc(OC)c(OC)cc23)c1
The inhibition was 71.8% (5-hydroxytryptamine receptor 2C (HTR2C, Homo sapiens, UniProt P28335)).
5-hydroxytryptamine receptor 2A (HTR2A, Homo sapiens, UniProt P28223) — inhibition: 99.2%.
It gave 10.5% for inhibition (Delta-type opioid receptor (OPRD1, Homo sapiens, UniProt P41143)).

Series 4 — observed: peptide-MHC binding; form: peptide; tested at: concentration not given
Target: HLA class I histocompatibility antigen, A alpha chain, allele A*80:01 (Homo sapiens, UniProt P04439)
`KVRDRNFQL` — result for binding: “inactive”.
`PELGAFFAI` — result for binding: “inactive”.
Under binding, `KPKHLYVSM` is recorded as “inactive”.
`WLGWGHAWV`: binding “inactive”.

Series 5 — method: RNAcompete; form: RNA; medium: in vitro; tested at: 20 nM; notes: 7-mer, probes averaged, single round; relative to: mean of 7-mers; direction: higher = stronger binding
Target: PABPC1L2, full length, GST fusion (mouse, UniProt A0ABA7IW68)
Target sequence (chain): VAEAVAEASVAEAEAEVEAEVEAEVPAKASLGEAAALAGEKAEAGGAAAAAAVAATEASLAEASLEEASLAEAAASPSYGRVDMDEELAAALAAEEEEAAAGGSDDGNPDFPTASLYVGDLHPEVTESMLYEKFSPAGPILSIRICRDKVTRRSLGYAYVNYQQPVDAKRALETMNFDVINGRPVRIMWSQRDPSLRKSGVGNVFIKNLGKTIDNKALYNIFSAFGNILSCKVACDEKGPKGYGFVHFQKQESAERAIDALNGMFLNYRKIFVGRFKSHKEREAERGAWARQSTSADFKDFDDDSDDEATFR
`CAGCCAC` has a 7-mer Z-score of 0.0623.
`GCACUCG` gave a 7-mer Z-score of -0.175.
`UUCAUCU` has a 7-mer Z-score of -0.296.
`UAAGCAU` has a 7-mer Z-score of -0.0373.
`AUCGCAG` has a 7-mer Z-score of -0.166.
`GAAAAGU` has a 7-mer Z-score of 3.13.
`GGAUUGC` gave a 7-mer Z-score of 0.115.
`ACUUAGC` gave a 7-mer Z-score of -0.135.

Series 6 — target: CCNB2, cyclin fold, Cln2 fusion (human); method: yeast growth competition, sequencing; medium: yeast; notes: strong parent motif; relative to: not given; direction: higher = stronger binding; starting sequence: viral docking peptide; TSVRRALFTGGSD
For `G11C`, “normalised enrichment score” read 1.08.
`F8C` — result for “normalised enrichment score”: 0.224.
Under “normalised enrichment score”, `F8Y` is recorded as 0.289.
For `T9W`, “normalised enrichment score” read 0.194.
Under “normalised enrichment score”, `T9R` is recorded as 0.806.
Under “normalised enrichment score”, `R4D` is recorded as -0.369.
`R5M` — result for “normalised enrichment score”: 0.548.
Under “normalised enrichment score”, `V3M` is recorded as 0.399.
`R4N` — result for “normalised enrichment score”: 0.0614.
For `S2F`, “normalised enrichment score” read 0.0274.
For `T9G`, “normalised enrichment score” read 0.707.
Under “normalised enrichment score”, `S2N` is recorded as 0.746.
For `F8A`, “normalised enrichment score” read 0.181.
`T9F`: “normalised enrichment score” 1.59.
Under “normalised enrichment score”, `D13A` is recorded as 0.784.
`A6N` — result for “normalised enrichment score”: 0.789.
For `S2K`, “normalised enrichment score” read 0.647.
Under “normalised enrichment score”, `T9K` is recorded as 1.1.
Under “normalised enrichment score”, `A6R` is recorded as 1.09.
`A6Q`: “normalised enrichment score” 1.35.
Under “normalised enrichment score”, `G10Q` is recorded as 1.01.
`S2P` — result for “normalised enrichment score”: 0.793.
For `A6V`, “normalised enrichment score” read 0.354.
Under “normalised enrichment score”, `S12N` is recorded as 1.09.
Under “normalised enrichment score”, `S12I` is recorded as 0.96.

For quick reference, copied from above (series 2):
The binding fitness of `K39P` is reported as -1.54 natural log.
The binding fitness of `Q55A` is reported as -1.43 natural log.
`K36S` has a binding fitness of -1.32 natural log.
